Measurements collected from several papers.
Parts stem from different laboratories: compare values within a part only. Values joined by “and” are separate records of one study, mostly repeats; a detail may differ.

Set 1 — concentration: 1 µM; measurement: remaining binding
Compound: Cc1nccc(COC(=O)N2C[C@@H]3[C@@H](CNC(=O)c4ccc5[nH]nnc5c4)[C@@H]3C2)n1
target = HIPK4 (Homo sapiens, UniProt Q8NE63); read-out = cell-free assay; method = competition with immobilised ligand; result = 84%
target = ALK (Homo sapiens, UniProt Q9UM73, L1196M); read-out = cell-free assay; method = competition with immobilised ligand; result = 93%
target = MAK (Homo sapiens, UniProt P20794); read-out = cell-free assay; method = competition with immobilised ligand; result = 98%
target = FRK (Homo sapiens, UniProt P42685); read-out = cell-free assay; method = competition with immobilised ligand; result = 100%
target = IKBKB (Homo sapiens, UniProt O14920); read-out = cell-free assay; method = competition with immobilised ligand; result = 96%
target = Tyrosine-protein kinase ABL1, non-phosphorylated (ABL1, Homo sapiens, UniProt P00519, F317I); read-out = binding; method = competition with immobilised ligand; result = 100%
target = NTRK3 (Homo sapiens, UniProt Q16288); read-out = cell-free assay; method = competition with immobilised ligand; result = 90%
target = MAP3K12 (Homo sapiens, UniProt Q12852); read-out = cell-free assay; method = competition with immobilised ligand; result = 72%
target = COQ8A (Homo sapiens, UniProt Q8NI60); read-out = cell-free assay; method = competition with immobilised ligand; result = 84%
target = MAPK1 (Homo sapiens, UniProt P28482); read-out = cell-free assay; method = competition with immobilised ligand; result = 100%
target = PLK4 (Homo sapiens, UniProt O00444); read-out = cell-free assay; method = competition with immobilised ligand; result = 83%
target = EIF2AK1 (Homo sapiens, UniProt Q9BQI3); read-out = cell-free assay; method = competition with immobilised ligand; result = 100%
target = LRRK2 (Homo sapiens, UniProt Q5S007); read-out = cell-free assay; method = competition with immobilised ligand; result = 100%
target = MARK1 (Homo sapiens, UniProt Q9P0L2); read-out = cell-free assay; method = competition with immobilised ligand; result = 84%
target = SLK (Homo sapiens, UniProt Q9H2G2); read-out = cell-free assay; method = competition with immobilised ligand; result = 100%
target = PIK3CA (Homo sapiens, UniProt P42336, I800L); read-out = cell-free assay; method = competition with immobilised ligand; result = 73%
target = TGFBR1 (Homo sapiens, UniProt P36897); read-out = cell-free assay; method = competition with immobilised ligand; result = 100%
target = RIOK1 (Homo sapiens, UniProt Q9BRS2); read-out = cell-free assay; method = competition with immobilised ligand; result = 100%
target = PRKCQ (Homo sapiens, UniProt Q04759); read-out = cell-free assay; method = competition with immobilised ligand; result = 91%
target = CSNK1G3 (Homo sapiens, UniProt Q9Y6M4); read-out = cell-free assay; method = competition with immobilised ligand; result = 100%
target = CDC42BPG (Homo sapiens, UniProt Q6DT37); method = competition binding; result = 92%
target = CDKL3 (Homo sapiens, UniProt Q8IVW4); read-out = cell-free assay; method = competition with immobilised ligand; result = 99%
target = EPHA4 (Homo sapiens, UniProt P54764); read-out = cell-free assay; method = competition with immobilised ligand; result = 98%
target = TLK2 (Homo sapiens, UniProt Q86UE8); read-out = cell-free assay; method = competition with immobilised ligand; result = 100%
target = PRKCI (Homo sapiens, UniProt P41743); read-out = cell-free assay; method = competition with immobilised ligand; result = 100%

Set 2 — mode: degrader; time: 24 h; measurement: remaining protein level
Compound: C[C@@H]1CN(c2ccc(-c3cc(C(=O)NCCOCCOCCOCCOCCOCCOCCOCCOCCOCCNC(=O)/C=C/c4[nH]cc(C(=O)N[C@@H](CC(N)=O)c5ccc(F)c(Cl)c5)c4-c4ccc(Cl)cc4F)ccc3F)cc2NC(=O)c2c[nH]c(=O)cc2C(F)(F)F)C[C@H](C)N1C
WDR5: WD repeat-containing protein 5 (WDR5, Homo sapiens, UniProt P61964)
WDR5/DCAF1: WDR5/DCAF1 (Homo sapiens, UniProt P61964+Q9Y4B6)
target = WDR5; method = Jess capillary immunoassay; refers to = WDR5 over vinculin; concentration = 60.3 nM; reference = DMSO; result = 64.8% and 60.7% and 74.9%
target = WDR5; method = Jess capillary immunoassay; refers to = WDR5 over vinculin; concentration = 141 nM; reference = DMSO; result = 62.1% and 62% and 64.3%
target = WDR5; method = Jess capillary immunoassay; refers to = WDR5 over vinculin; concentration = 2 nM; reference = DMSO; result = 96.9% and 112% and 101%
target = WDR5/DCAF1; method = HiBiT luminescence; concentration = 10000 nM; result = 40.7% and 41.5% and 38.6% and 36.6%
target = WDR5/DCAF1; method = HiBiT luminescence; concentration = 3880 nM; result = 22.7% and 24.8% and 29% and 28.2%
target = WDR5/DCAF1; method = HiBiT luminescence; concentration = 227 nM; result = 38.7% and 44.6% and 37.6% and 38.1%
target = WDR5; method = Jess capillary immunoassay; refers to = WDR5 over vinculin; concentration = 1821 nM; reference = DMSO; result = 51.2% and 56.4% and 50.5%

Set 3 — cell line: mouse MPNST tumor cells; method: high-content immunofluorescence imaging; refers to: nuclear SOX9; concentration: 10 µM; time: 12 h; notes: mean of 2 replicates; reference: DMSO control; direction: higher = more nuclear SOX9; measurement: nuclear SOX9 intensity
Compound = CCO[C@@H](Cc1ccc(OCCc2ccc(OS(C)(=O)=O)cc2)cc1)C(=O)O; result = 108 % of DMSO
Compound = Nc1nc2c(c(N3CCNCC3)n1)CCC1=C2C2CCCCC2O1 (stereo not drawn); result = 146 % of DMSO
Compound = CCCCCCCCCCCCCCCC[N+](C)(C)CCN(Cc1ccc(OC)cc1)c1ncccn1; result = 140 % of DMSO
Compound = O=C1CCc2ccc(OCCCCN3CCN(c4cccc(Cl)c4Cl)CC3)cc2N1; result = 106 % of DMSO and 178 % of DMSO and 206 % of DMSO
Compound = O=C(Cc1ccccc1)Nc1nc2ccc(Cl)cc2c2nc(-c3ccco3)nn12; result = 104 % of DMSO
Compound = CN1CCC(=C2c3ccccc3CC(=O)c3sccc32)CC1; result = 134 % of DMSO
Compound = CCOC(=O)O[C@]1(C(=O)COC(=O)CC)CC[C@H]2[C@@H]3CCC4=CC(=O)C=C[C@]4(C)[C@H]3[C@@H](O)C[C@@]21C; result = 72 % of DMSO
Compound = Cc1cc(=O)n(C)c2cc(N3C(=O)CC[C@@H](NS(=O)(=O)CC(C)C)[C@@H]3c3ccc(Cl)cc3)ccc12; result = 111 % of DMSO
Compound = CCOC(=O)Nc1cc(-c2ccc(C)c(NS(C)(=O)=O)c2)nn2c(C)nnc12; result = 248 % of DMSO
Compound = O=C(Nc1cc2cc[nH]c2cn1)c1ccccc1; result = 94.8 % of DMSO
Compound = O=C(O)COc1ccc(/C=C2\SC(=O)NC2=O)cc1; result = 96.3 % of DMSO
Compound = C[C@@H]1C[C@H]2[C@@H]3C[C@H](F)C4=CC(=O)C=C[C@]4(C)[C@@]3(F)[C@@H](O)C[C@]2(C)[C@@]1(O)C(=O)COC(=O)C(C)(C)C; result = 91.3 % of DMSO
Compound = COC(=O)[C@@H]1[C@H]2C[C@H]3c4[nH]c5ccccc5c4CCN3C[C@@H]2CC[C@@H]1O; result = 91 % of DMSO
Compound = Nc1nc(NC2CC2)c2ncn([C@H]3C=C[C@@H](CO)C3)c2n1; result = 108 % of DMSO and 115 % of DMSO and 119 % of DMSO
Compound = CC(=O)S[C@@H]1CC2=CC(=O)CC[C@]2(C)[C@H]2CC[C@@]3(C)[C@@H](CC[C@@]34CCC(=O)O4)[C@H]12; result = 112 % of DMSO and 102 % of DMSO and 99.1 % of DMSO

Set 4 — mode: inhibitor; concentration: 10 µM; reference: control; measurement: remaining activity
Target: Diamine acetyltransferase 1 (Homo sapiens, UniProt P21673)
Target sequence (P21673 1-171): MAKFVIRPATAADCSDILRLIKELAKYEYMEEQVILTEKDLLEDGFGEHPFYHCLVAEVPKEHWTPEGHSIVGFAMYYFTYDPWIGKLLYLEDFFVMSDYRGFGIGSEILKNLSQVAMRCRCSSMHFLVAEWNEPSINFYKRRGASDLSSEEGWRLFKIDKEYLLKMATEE
Compound = O=C1c2c(O)cc(O)cc2O[C@@H](c2ccc(O)cc2)[C@H]1[C@@H]1C(=O)c2c(O)cc(O)cc2O[C@@H]1c1ccc(O)cc1; result = 99.1%
Compound = CCCCCCCCCCCC(=O)O; result = 86.1%
Compound = CC1(C)[C@H]2CC[C@]1(C)C(=O)C2; result = 88.5%
Compound = C[C@@H]1C(=O)O[C@H]2[C@@H](O)[C@@]34[C@H]5C[C@@H](C(C)(C)C)[C@]36[C@@H](OC(=O)[C@@H]6O)O[C@@]4(C(=O)O5)[C@@]12O; result = 59.4%
Compound = COc1ccc(-c2coc3cc(O[C@@H]4O[C@H](CO[C@@H]5OC[C@@H](O)[C@H](O)[C@H]5O)[C@@H](O)[C@H](O)[C@H]4O)c(OC)c(O)c3c2=O)cc1; result = 102%
Compound = O=C(O)[C@H]1O[C@@H](Oc2cc(O)c3c(=O)cc(-c4ccccc4)oc3c2)[C@H](O)[C@@H](O)[C@@H]1O; result = 96.2%
Compound = O=C(O[C@@H]1Cc2c(O)cc(O)cc2O[C@@H]1c1ccc(O)c(O)c1)c1cc(O)c(O)c(O)c1; result = 76.7%
Compound = O=c1c2ccccc2nc2n1CCc1c-2[nH]c2ccccc12; result = 104%
Compound = O=C(O)CC(O)C(=O)O (stereo not drawn); result = 98.5%
Compound = COc1cc(C[C@@H](CO)[C@H](CO)Cc2ccc(O)c(OC)c2)ccc1O; result = 95.1%
Compound = C[C@@H]1O[C@@H](O[C@H]2[C@H](OC(=O)[C@]34CCC(C)(C)C[C@H]3C3=CC[C@@H]5[C@@]6(C)C[C@H](O)[C@H](O[C@@H]7O[C@H](CO)[C@@H](O)[C@H](O[C@@H]8O[C@H](CO)[C@@H](O)[C@H](O)[C@H]8O)[C@H]7O)C(CO)(CO)[C@@H]6CC[C@@]5(C)[C@]3(C)C[C@H]4O)OC[C@H](O)[C@@H]2O)[C@H](O)[C@H](O)[C@H]1O[C@@H]1OC[C@@H](O)[C@H](O[C@@H]2OC[C@](O)(CO)[C@H]2O)[C@H]1O; result = 99.5%
Compound = C=C1C(=O)O[C@H]2C1CC[C@@](C)(O)C13C=CC(C)(C21)C1(C3)C(=O)O[C@@H]2C3C(C)=CCC3[C@](C)(O)[C@H](OC(C)=O)CC21 (stereo partly drawn); result = 89.3%
Compound = CC/C=C\CC1=C(C)CCC1=O; result = 96.6%
Compound = COc1ccc2ccc(=O)oc2c1CC=C(C)C; result = 103%
Compound = O=C(/C=C/c1ccc(O)c(O)c1)O[C@@H]1C[C@](OC(=O)/C=C/c2ccc(O)c(O)c2)(C(=O)O)C[C@@H](O)[C@H]1O; result = 75.8%
Compound = O=C(O)CCCCCCCC(=O)O; result = 99.2%
